Measured values collected from several papers.
Parts stem from different laboratories: compare values within a part only.

Set 1 — method: RNAcompete; form: RNA; medium: in vitro; tested at: 20 nM; setting: 7-mer, probes averaged, single round; baseline: mean of 7-mers; direction: higher = stronger binding; endpoint: 7-mer Z-score
Target: PABPC1L2, full length, GST fusion (mouse, UniProt A0ABA7IW68)
Strand = AAGACAU; value = 0.468
Strand = UUCGAUA; value = -0.179
Strand = AUAAACG; value = 1.24
Strand = CGGGUGU; value = 0.046
Strand = UUACAAU; value = -0.184
Strand = GUCAGGU; value = -0.0808

Set 2 — method: universal PBM; form: double-stranded DNA, one strand shown; medium: in vitro; tested at: not given; direction: higher = stronger binding; endpoint: E-score
Target: Sal-like protein 4, full length isoform B (SALL4, Homo sapiens, UniProt Q9UJQ4-2, residues 1-616)
Setting: 8-mer, flanks averaged, mean of replicates
Strand = GCGTTTGA; value = -0.059
Strand = AGGTAATG; value = 0.0364
Strand = GCCTGTTA; value = 0.0785
Strand = ATAAGAGC; value = 0.172
Strand = GCGGACAA; value = 0.00387
Strand = ATATTAAC; value = 0.396
Strand = CAGGCGCG; value = -0.28
Strand = GCCCCATA; value = -0.124
Strand = CGGAGCCG; value = -0.345
Strand = CCATCACA; value = -0.0272

Set 3 — method: protein binding microarray; form: double-stranded DNA, one strand shown; medium: in vitro; tested at: not given; baseline: not given; direction: higher = stronger binding; endpoint: E-score
Target: Histone acetyltransferase KAT6A, winged helix 1, GST fusion (KAT6A, Homo sapiens, UniProt Q92794, residues 1-85)
Setting: 8-mer, flanks averaged, mean of 2 arrays, mostly near background
Construct (chain): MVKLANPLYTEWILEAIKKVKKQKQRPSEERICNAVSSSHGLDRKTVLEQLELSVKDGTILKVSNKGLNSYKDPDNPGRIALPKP
Strand = CACTGCGA; value = 0.0304
Strand = GAACTTGA; value = -0.0642
Strand = AATCTAGT; value = -0.193
Strand = ATCGCAAC; value = -0.0239
Strand = CCCGATAA; value = 0.0463
Strand = TCTTTACA; value = -0.22
Strand = ACGGGTCG; value = 0.345

Single results of other studies
Substance = PhoQ, residues 284 288 289 292 302 303 SMYGEC; target = PhoP, residues 12 14 15 18 19 QYCSL (Escherichia coli, UniProt P23836); assay = Sort-seq, item: YFP reporter; system = E. coli; conditions = PhoQ-PhoP variant library, added: 10 µM Mg2+; scale = baseline: high Mg2+ state, higher = stronger signaling; endpoint = fold induction; value = 12.2

A few entries again (set 3):
Strand = CCCGATAA; value = 0.0463
Strand = GAACTTGA; value = -0.0642
